Literature values, collected from citations in different studies.
Compare with care: the assays were run in different laboratories. ± marks the error that the study gave.
UniProt Q15418, sequence (whole entry, looked up): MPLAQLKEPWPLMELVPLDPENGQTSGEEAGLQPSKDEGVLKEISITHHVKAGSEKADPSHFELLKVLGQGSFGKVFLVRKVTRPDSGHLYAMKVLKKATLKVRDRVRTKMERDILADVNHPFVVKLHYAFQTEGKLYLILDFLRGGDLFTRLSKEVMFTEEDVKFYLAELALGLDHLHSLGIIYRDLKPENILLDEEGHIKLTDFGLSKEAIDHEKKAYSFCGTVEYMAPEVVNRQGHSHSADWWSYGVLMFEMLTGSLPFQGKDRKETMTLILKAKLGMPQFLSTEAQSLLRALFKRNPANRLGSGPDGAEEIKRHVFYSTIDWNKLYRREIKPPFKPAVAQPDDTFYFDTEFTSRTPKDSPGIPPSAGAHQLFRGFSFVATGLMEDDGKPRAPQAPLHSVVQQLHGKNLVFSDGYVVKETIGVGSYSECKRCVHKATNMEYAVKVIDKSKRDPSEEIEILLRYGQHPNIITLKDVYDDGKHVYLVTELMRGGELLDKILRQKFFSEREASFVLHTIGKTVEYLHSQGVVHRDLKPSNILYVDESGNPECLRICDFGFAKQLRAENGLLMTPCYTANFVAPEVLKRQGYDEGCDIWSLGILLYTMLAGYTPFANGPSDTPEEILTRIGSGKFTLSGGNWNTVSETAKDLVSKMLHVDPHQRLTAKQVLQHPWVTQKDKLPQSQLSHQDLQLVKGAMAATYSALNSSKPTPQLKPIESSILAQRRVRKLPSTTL

CCN1CCN(Cc2ccc(Nc3ncc(F)c(-c4cc(F)c5nc(C)n(C(C)C)c5c4)n3)nc2)CC1
Tmax (human; range over 50 to 275 mg): 4 to 6 h

CNS(=O)(=O)Nc1nccc(Cc2c(C)c3ccc(Oc4ncccn4)cc3oc2=O)c1F
Tmax (human; oral): 1 to 2 h

Cc1cc2c(s1)Nc1ccccc1N=C2N1CCN(C)CC1
Tmax (human; oral, 10 mg, day 1): 5 h

C=CC(=O)Nc1cc(Nc2nccc(-c3cn(C)c4ccccc34)n2)c(OCC(F)(F)F)nc1N(C)CCN(C)C
Tmax (measured: total radioactivity; human; oral): 0.5 h

Cc1cccc(F)c1N1CCC(N2Cc3cn(CC(C)(F)F)nc3N(Cc3ccccc3C(F)(F)F)C2=O)CC1
Tmax (human; range over 0.5-200 mg, single dose, fed): 2.5 to 3.5 h

NC(=S)NN=Cc1ncccc1N
Tmax (human, serum; intravenous infusion, 2 h infusion): 1 to 2 h

O=C(c1cc(Cc2n[nH]c(=O)c3ccccc23)ccc1F)N1CCN(C(=O)C2CC2)CC1
Tmax (human; oral tablet, 100 mg twice daily, multiple dose): 2 h

Cc1ccccc1CN1C(=O)C2=C(CCN(Cc3ccccc3)C2)N2CCN=C12
Tmax (human; oral, 625 mg, high-fat meal): 2.25 h

C[C@H]1CO[C@@H]2Cn3cc(C(=O)NCc4ccc(F)cc4F)c(=O)c(O)c3C(=O)N12
Tmax (human; oral tablet, median fasted): 2.5 h ours

CCN1CCN(Cc2ccc(Nc3ncc(F)c(-c4cc(F)c5nc(C)n(C(C)C)c5c4)n3)nc2)CC1
Tmax (human; 100 mg twice daily, multiple dose, tablet): 6.86 h

CC(C)[C@H](C(=O)Nc1ccc(C(=O)NO)cc1)c1ccccc1
Tmax (human; oral, 20 mg): 4 h

COc1cc2c(Oc3ccc4[nH]c(C)cc4c3F)ccnc2cc1OCC1(N)CC1
Tmax (human; 10 mg single dose): 6 ± 4.4 h

O=C(CCCCCCC(=O)Nc1ccccc1)NO
Tmax (human; oral, dose not given): 1.78 h

COc1cc(N2CCC3(CCN(C)CC3)CC2)ccc1Nc1ncc(Cl)c(Nc2ccccc2P(C)(C)=O)n1
Tmax (human; oral): ~2 h

COCCc1ccc(OCC(O)CNC(C)C)cc1 (centres unmarked)
Tmax (human, fasted; 200 mg single dose, median): 8.94 h

Nc1cc(C(F)(F)F)c(-c2nc(N3CCOCC3)nc(N3CCOCC3)n2)cn1
remaining activity (Ribosomal protein S6 kinase alpha-1, N-terminal kinase domain (RPS6KA1, Homo sapiens, UniProt Q15418); enzyme activity; 10 µM; reference: untreated): 74%

O=C1[C@H](CC[C@H](O)c2ccc(F)cc2)[C@@H](c2ccc(O)cc2)N1c1ccc(F)cc1
Tmax (human; dose not given, together with: rifampin 18): ~3 h

C#C[C@]1(O)CC[C@H]2[C@@H]3CCc4cc(O)ccc4[C@H]3CC[C@@]21C
Tmax (human, fed; 0.025 mg multiple doses, median): 2 h

Cc1cc(C)c(CNC(=O)c2cc(Cl)c3c(c2C)O[C@@](C)([C@H]2CC[C@H](N(C)C)CC2)O3)c(=O)[nH]1
Tmax (human, plasma; oral, 100 mg single dose, study, median): 4 h

CNCc1cc(-c2ccccc2F)n(S(=O)(=O)c2cccnc2)c1
Tmax (human, plasma; 30 mg single dose, observed clinical data): 1.5 h

For quick reference, copied from above:
Cc1cc2c(s1)Nc1ccccc1N=C2N1CCN(C)CC1
Tmax (human; oral, 10 mg, day 1): 5 h

C=CC(=O)Nc1cc(Nc2nccc(-c3cn(C)c4ccccc34)n2)c(OCC(F)(F)F)nc1N(C)CCN(C)C
Tmax (measured: total radioactivity; human; oral): 0.5 h

Cc1cccc(F)c1N1CCC(N2Cc3cn(CC(C)(F)F)nc3N(Cc3ccccc3C(F)(F)F)C2=O)CC1
Tmax (human; range over 0.5-200 mg, single dose, fed): 2.5 to 3.5 h
